Experimental data pooled from the literature.
Lines come from different studies, so protocols differ. Values joined by “and” are separate records of one study, mostly repeats; a detail may differ. ± gives the spread as reported.
UniProt Q8TDC3, sequence (whole entry, looked up): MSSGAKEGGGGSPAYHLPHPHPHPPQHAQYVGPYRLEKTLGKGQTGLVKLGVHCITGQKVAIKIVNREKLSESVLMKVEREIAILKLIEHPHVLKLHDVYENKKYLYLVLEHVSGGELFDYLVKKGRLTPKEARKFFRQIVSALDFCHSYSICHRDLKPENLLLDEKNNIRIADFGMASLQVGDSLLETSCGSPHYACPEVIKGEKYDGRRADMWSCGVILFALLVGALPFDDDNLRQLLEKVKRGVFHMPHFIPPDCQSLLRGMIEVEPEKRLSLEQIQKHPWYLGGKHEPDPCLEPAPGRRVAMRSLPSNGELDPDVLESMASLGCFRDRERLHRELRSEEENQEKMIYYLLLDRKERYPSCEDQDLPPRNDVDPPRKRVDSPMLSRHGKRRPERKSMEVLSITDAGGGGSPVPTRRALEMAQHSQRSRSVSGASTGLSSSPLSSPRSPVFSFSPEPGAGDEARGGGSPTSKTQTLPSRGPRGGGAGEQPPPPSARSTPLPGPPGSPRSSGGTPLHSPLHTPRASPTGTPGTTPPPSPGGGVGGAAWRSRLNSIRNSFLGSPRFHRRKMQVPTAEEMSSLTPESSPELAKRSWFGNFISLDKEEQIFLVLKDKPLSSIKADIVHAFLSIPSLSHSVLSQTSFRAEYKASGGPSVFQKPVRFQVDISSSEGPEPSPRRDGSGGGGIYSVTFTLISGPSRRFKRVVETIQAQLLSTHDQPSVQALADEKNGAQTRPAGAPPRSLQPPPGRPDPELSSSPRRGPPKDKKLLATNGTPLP
UniProt Q16816, sequence (whole entry, looked up): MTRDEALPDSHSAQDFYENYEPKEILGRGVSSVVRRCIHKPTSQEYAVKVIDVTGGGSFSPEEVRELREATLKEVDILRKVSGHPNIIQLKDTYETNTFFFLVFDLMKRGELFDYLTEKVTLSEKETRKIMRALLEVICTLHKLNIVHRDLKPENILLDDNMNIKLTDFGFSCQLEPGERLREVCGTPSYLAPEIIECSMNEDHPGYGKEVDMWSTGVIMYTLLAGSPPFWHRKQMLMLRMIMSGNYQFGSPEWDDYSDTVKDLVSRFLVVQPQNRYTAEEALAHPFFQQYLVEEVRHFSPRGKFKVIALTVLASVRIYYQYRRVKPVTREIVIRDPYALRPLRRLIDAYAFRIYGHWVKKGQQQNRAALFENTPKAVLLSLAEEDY

SMILES | tested on | test | system | setting | scale | quantity | value
N=C(N)NCCC[C@@H](NC(=O)[C@H](N)Cc1c[nH]c2ccccc12)C(=O)N[C@H](CCCCN)C(=O)N[C@H](Cc1c[nH]c2ccccc12)C(=O)N[C@H](CCCNC(=N)N)C(=O)N[C@H](CCCCN)C(=O)N[C@H](Cc1c[nH]c2ccccc12)C(=O)N[C@H](CCCNC(=N)N)C(=O)N[C@H](CCCCN)C(=O)N[C@H](Cc1c[nH]c2ccccc12)C(=O)N[C@H](CCCNC(=N)N)C(=O)N[C@H](CCCCN)C(N)=O | – | – | mouse, lung | intravenous, 40 mg/kg single dose, 7 days | – | organ index | 0.789
CC(C)(C)C(=O)OCOP(=O)(OCOC(=O)C(C)(C)C)C1CCCN(O)C1=O (stereo not drawn) | T47D | – | – | – | – | log LC50 | > -4 log M
O=C1NC2(CC2)COc2ncc(F)cc2[C@H]2COCCN2c2ccn3ncc1c3n2 | – | – | Sprague-Dawley rat, female, ovaries | oral, 2.5 mg/kg/day, 4 weeks, end of treatment | – | organ-to-brain weight ratio | 5.69 ± 0.75%
CC(C)N1CCCCC1C(=O)NC(Cc1ccc(-c2ccccc2)cc1)B(O)O (stereo not drawn) | – | – | SCID mouse, P. falciparum model, blood | oral, 25 mg/kg, 6 h | – | blood concentration | 15 ng/mL
COc1ccccc1-c1n[nH]c2nc(NC3CCN(C(=O)Cc4ccc(F)cc4F)CC3)ncc12 | – | bead binding, competition bead pull-down, refers to: LINJ.29.0790 | Leishmania donovani extract | 10 µM | relative to: vehicle | relative abundance | 1.02
CC(CCC(=O)NCC(=O)O)C1CCC2C3C(O)CC4CC(OC5OC(C(=O)O)C(O)C(O)C5O)CCC4(C)C3CCC12C (stereo not drawn) | – | – | human men | dose not given, SLCO1B1 *14/*35 | – | plasma concentration | 27.1 ng/mL
CCCC[C@@H]1NC(=O)[C@H](Cc2ccc(O)cc2)NC(=O)[C@@H]2CCCN2C(=O)[C@H](CC(=O)O)NC(=O)[C@H](C)NC(=O)[C@H](Cc2ccccc2)NC(=O)[C@@H]2CSCCC(=O)N3CN(CN(C3)C(=O)CCSC[C@@H](C(=O)N[C@@H](C)C(N)=O)NC1=O)C(=O)CCSC[C@H](NC(C)=O)C(=O)N[C@@H](CC(C)(C)C)C(=O)N1CCC[C@H]1C(=O)N[C@@H](CCC(=O)O)C(=O)N[C@H](CCCCNC(=O)CCc1cn(CCOCCOCCOCCN(CCOCCOCCOCCC(=O)N[C@H]3CSCCC(=O)N4CN5CN(C4)C(=O)CCSC[C@H](NC(=O)[C@@H](CC(=O)O)NC(=O)[C@H](Cc4cccc6ccccc46)NC(=O)[C@@H]4CCCN4C3=O)C(=O)N[C@@H](CCSC)C(=O)N[C@@H](CCCCNC(=N)N)C(=O)N[C@@H](CC(=O)O)C(=O)N[C@@H](Cc3c[nH]c4ccccc34)C(=O)N[C@@H](CO)C(=O)N[C@@H]([C@@H](C)O)C(=O)N3CCC[C@H]3C(=O)N3C[C@H](O)C[C@H]3C(=O)N[C@@H](Cc3c[nH]c4ccccc34)C(=O)N[C@H](C(N)=O)CSCCC5=O)CCOCCOCCOCCn3cc(CCC(=O)NCCCC[C@H]4NC(=O)[C@H](CCC(=O)O)NC(=O)[C@@H]5CCCN5C(=O)[C@H](CC(C)(C)C)NC(=O)[C@@H](NC(C)=O)CSCCC(=O)N5CN6CN(C5)C(=O)CCSC[C@H](NC(=O)[C@H](Cc5ccc(O)cc5)NC(=O)[C@@H]5CCCN5C4=O)C(=O)N[C@@H](Cc4ccccc4)C(=O)N[C@@H](C)C(=O)N[C@@H](CC(=O)O)C(=O)N4CCC[C@H]4C(=O)N[C@@H](Cc4ccc(O)cc4)C(=O)N[C@@H](CCCC)C(=O)N[C@H](C(=O)N[C@@H](C)C(N)=O)CSCCC6=O)nn3)nn1)C(=O)N1CCC[C@H]1C(=O)N[C@@H](Cc1ccc(O)cc1)C(=O)N2 | – | ultracentrifugation | rat plasma | – | – | fraction unbound | 0.21
CC(C)(c1cc(Br)c(O)c(Br)c1)c1cc(Br)c(O)c(Br)c1 | – | ultrafiltration | cow milk whey | 2000 nM nominal in whole milk | – | final permeate concentration | 50.9 nM
C#Cc1c(F)ccc2cc(O)cc(-c3ncc4c(N5CC6CCC(C5)N6C(=O)OC(C)OC(=O)C(CCCC)CCCCCC)nc(OC[C@@]56CCCN5C[C@H](F)C6)nc4c3F)c12 (stereo partly drawn) | – | chemical stability | simulated intestinal fluid | 1 µM, 30 min | – | compound remaining | 106%
CC1(C)C(=O)N(c2ccc(C#N)c(C(F)(F)F)c2)C(=S)N1c1ccc(C(N)=O)c(F)c1 | – | – | healthy male humans, plasma | oral, 160 mg, fasting, soft capsules | – | median Tmax | 204 h
CC(C)[C@H]1NC(=O)C[C@H]2/C=C/CCSSC[C@@H](NC1=O)C(=O)N[C@H](Cc1cccc3ccccc13)C(=O)NCC(=O)O2 | BRSK1 (Homo sapiens, UniProt Q8TDC3) | enzyme activity, inhibitor | – | 10 µM | – | inhibition | -2.1%
CC(=O)NCCCC[C@@H]1NC(=O)[C@H](Cc2c[nH]c3c(C)cccc23)NC(=O)[C@H]([C@@H](C)O)NC(=O)[C@H](CC(N)=O)NC(=O)[C@@H](NC(C)=O)C(C)(C)SSC(C)(C)[C@@H](C(=O)N[C@@H](Cc2ccc(OCCN)cc2)C(=O)N[C@@H](Cc2ccc3ccccc3c2)C(=O)NC2(C(=O)N[C@@H](CCC(=O)O)C(=O)N[C@@H](CC(N)=O)C(=O)N[C@@H](Cc3cccnc3)C(=O)N(C)CC(N)=O)CCOCC2)NC1=O | – | – | cynomolgus monkey, patellar synovium | intravenous, 1 mg/kg | – | tissue to plasma ratio | 100%
CSCC[C@H](NC(=O)CNC(=O)[C@H](CCCCN)NC(=O)[C@H](CC(C)C)NC(=O)[C@@H]1CCCN1C(=O)[C@H](CO)NC(=O)[C@H](Cc1c[nH]cn1)NC(=O)[C@H](Cc1c[nH]c2ccccc12)NC(=O)[C@H](CCCNC(=N)N)NC(=O)[C@H](CC(C)C)NC(=O)[C@H](CCCNC(=N)N)NC(=O)[C@H](Cc1c[nH]c2ccccc12)NC(=O)[C@H](CS)NC(=O)CCCCCNC(=O)CN1CCN(CC(=O)O)CCN(CC(=O)O)CCN(CC(=O)O)CC1)C(=O)O [copper-64 labelled] | – | ex vivo biodistribution | C57BL/6J mice bearing B16-F10 tumours, heart | intravenous, 1.85 MBq, 18 h | – | tissue uptake | 1.91 %ID/g
CN(C)[C@H]1C[C@@]23CC[C@@]4(O2)C(=CC[C@]2(C)[C@@H](c5ccc6ccncc6c5)CC[C@H]24)C=C3[C@@H](O)[C@@H]1O | PHKG1 (Homo sapiens, UniProt Q16816) | probe labelling, inhibitor, KiNativ ATP probe MS | native lysate | 0.1 µM | – | inhibition | 8.9%
COc1cnc2cccc(N3CCc4c(cc(Cn5ccnc5)cc4-c4cn(C)nc4C(F)(F)F)C3=O)c2c1 | – | – | BALB/c nude mice, MV4-11 xenograft | intraperitoneal, 100 mg/kg, day 31 | – | body weight | 21.7 g and 23.1 g and 22.2 g and 24.2 g and 23.2 g
CC[C@H](C)[C@H](NC(=O)[C@H](CO)NC(=O)[C@H](Cc1ccc(O)cc1)NC(=O)[C@H](Cc1ccc(O)cc1)NC(=O)[C@H](CC(N)=O)NC(=O)CNC(=O)[C@H](CO)NC(=O)[C@H](Cc1ccc(O)cc1)NC(=O)[C@H](CO)NC(=O)[C@H](CO)NC(=O)[C@H](CC(N)=O)NC(=O)COCCOCCNC(=O)CN1CCN(CC(=O)O)CCN(CC(=O)O)CCN(CC(=O)O)CC1)C(=O)N[C@@H](CC(C)C)C(N)=O [copper-64 labelled] | – | dynamic PET | mouse, tamoxifen-induced PDAC, blood | intravenous, 0.1 µg/mouse, 6.5 min | – | tumour uptake | 9.64 %ID/mL
COc1ccccc1-c1n[nH]c2nc(N[C@H]3CC[C@H](NS(=O)(=O)CC(C)C)CC3)ncc12 | – | bead binding, competition bead pull-down, refers to: LINJ.27.1710 | Leishmania donovani extract | 10 µM | relative to: vehicle | relative abundance | 0.96
CC[C@H](C)[C@H](NC(=O)[C@H](CCCCN)NC(=O)CNC(=O)[C@H](CC(C)C)NC(=O)[C@H](Cc1ccccc1)NC(=O)[C@H](CCCCN)NC(=O)[C@H](CO)NC(=O)[C@H](Cc1ccccc1)NC(=O)[C@H](Cc1c[nH]c2ccccc12)NC(=O)[C@H](CCC(N)=O)NC(=O)[C@@H](NC(=O)[C@H](Cc1ccccc1)NC(=O)CCCCCNC(=O)CN1CCN(CC(=O)O)CCN(CC(=O)O)CCN(CC(=O)O)CC1)C(C)C)C(=O)N[C@@H](CCC(=O)O)C(=O)N1CCC[C@H]1C(=O)N[C@H](CC(=O)O)C(=O)N[C@H](C(=O)N[C@@H](CO)C(=O)N[C@@H](CCC(N)=O)C(=O)N[C@H](C(=O)N[C@@H](CCC(N)=O)C(=O)N[C@@H](CC(=O)O)C(=O)N1CCC[C@H]1C(=O)N[C@@H](CC(N)=O)C(=O)N[C@@H](CC(=O)O)C(=O)N[C@@H](CCC(N)=O)C(=O)N[C@@H](Cc1ccc(O)cc1)C(=O)N[C@@H](CCC(=O)O)C(=O)N1CCC[C@H]1C(=O)N[C@@H](Cc1ccccc1)C(=O)O)C(C)C)C(C)C [copper-64 labelled] | – | – | female mice, EMT6 tumour-bearing, blood | 2 h, uncleavable control tracer, checkpoint inhibitor-treated | – | tissue uptake | 1.29 ± 0.34 %ID/g

Repeated from above:
SMILES | tested on | test | system | setting | scale | quantity | value
COc1ccccc1-c1n[nH]c2nc(NC3CCN(C(=O)Cc4ccc(F)cc4F)CC3)ncc12 | – | bead binding, competition bead pull-down, refers to: LINJ.29.0790 | Leishmania donovani extract | 10 µM | relative to: vehicle | relative abundance | 1.02
CC(CCC(=O)NCC(=O)O)C1CCC2C3C(O)CC4CC(OC5OC(C(=O)O)C(O)C(O)C5O)CCC4(C)C3CCC12C (stereo not drawn) | – | – | human men | dose not given, SLCO1B1 *14/*35 | – | plasma concentration | 27.1 ng/mL
CCCC[C@@H]1NC(=O)[C@H](Cc2ccc(O)cc2)NC(=O)[C@@H]2CCCN2C(=O)[C@H](CC(=O)O)NC(=O)[C@H](C)NC(=O)[C@H](Cc2ccccc2)NC(=O)[C@@H]2CSCCC(=O)N3CN(CN(C3)C(=O)CCSC[C@@H](C(=O)N[C@@H](C)C(N)=O)NC1=O)C(=O)CCSC[C@H](NC(C)=O)C(=O)N[C@@H](CC(C)(C)C)C(=O)N1CCC[C@H]1C(=O)N[C@@H](CCC(=O)O)C(=O)N[C@H](CCCCNC(=O)CCc1cn(CCOCCOCCOCCN(CCOCCOCCOCCC(=O)N[C@H]3CSCCC(=O)N4CN5CN(C4)C(=O)CCSC[C@H](NC(=O)[C@@H](CC(=O)O)NC(=O)[C@H](Cc4cccc6ccccc46)NC(=O)[C@@H]4CCCN4C3=O)C(=O)N[C@@H](CCSC)C(=O)N[C@@H](CCCCNC(=N)N)C(=O)N[C@@H](CC(=O)O)C(=O)N[C@@H](Cc3c[nH]c4ccccc34)C(=O)N[C@@H](CO)C(=O)N[C@@H]([C@@H](C)O)C(=O)N3CCC[C@H]3C(=O)N3C[C@H](O)C[C@H]3C(=O)N[C@@H](Cc3c[nH]c4ccccc34)C(=O)N[C@H](C(N)=O)CSCCC5=O)CCOCCOCCOCCn3cc(CCC(=O)NCCCC[C@H]4NC(=O)[C@H](CCC(=O)O)NC(=O)[C@@H]5CCCN5C(=O)[C@H](CC(C)(C)C)NC(=O)[C@@H](NC(C)=O)CSCCC(=O)N5CN6CN(C5)C(=O)CCSC[C@H](NC(=O)[C@H](Cc5ccc(O)cc5)NC(=O)[C@@H]5CCCN5C4=O)C(=O)N[C@@H](Cc4ccccc4)C(=O)N[C@@H](C)C(=O)N[C@@H](CC(=O)O)C(=O)N4CCC[C@H]4C(=O)N[C@@H](Cc4ccc(O)cc4)C(=O)N[C@@H](CCCC)C(=O)N[C@H](C(=O)N[C@@H](C)C(N)=O)CSCCC6=O)nn3)nn1)C(=O)N1CCC[C@H]1C(=O)N[C@@H](Cc1ccc(O)cc1)C(=O)N2 | – | ultracentrifugation | rat plasma | – | – | fraction unbound | 0.21
